Measurements gathered from unrelated publications.
Lines come from different studies, so protocols differ. ± marks the error that the study gave.

Substance	test	test system	setting	how to read	quantity	value
C#CCOc1ccc(/C=C2\SC(=O)N(CC(=O)NCc3ccccc3)C2=O)cc1	inverse Kirkwood-Buff integrals	binary solvent mixture	298.15 K, mole fraction x1 0.10	–	Kirkwood-Buff integral G1,3	-387 cm³/mol
C=C(c1ccc(C(=O)O)c(F)c1)c1cc2c(cc1C)C(C)(C)C=CC2(C)C	–	Sprague-Dawley rat, male	oral, 100 mg/kg, 3 h, sesame oil vehicle	–	blood triglycerides	113 ± 7.8 mg/dL
O=C1c2sc(-c3ccc(N4CCC(CO)CC4)nc3F)nc2CCN1c1cccnc1	PET imaging	rhesus monkey, whole brain	intravenous bolus	–	peak brain uptake	1 % injected dose
NC12CNCCNCC(NCc3ccc(CNC(=O)CCCC(=O)NCc4ccc(-c5nncnn5)cc4)cc3)(CNCCNC1)CNCCNC2.[64Cu+2]	OLINDA dosimetry	ovaries	48 h pretargeting interval, added: huA33-TCO pretargeting	–	mean absorbed dose	0.0374 rad/mCi
CC(C)c1cnc(-c2cc(Cl)ccc2F)cc1Nc1ccncc1C(=O)NC(CO)CO	monotherapy, refers to: headache	human patients	oral, dose not given, grade 5, phase I A	–	patients with treatment-related adverse event	0%
CC(C)CCCC(C)CCCC(C)CCO[C@@H]1O[C@H](CO)[C@@H](O[C@H]2O[C@H](CO)[C@@H](O)[C@H](O)[C@H]2O)[C@H](O)[C@H]1O (stereo partly drawn)	dynamic surface tension	–	0.0145 mmol/L	–	characteristic time t*	43.8 s
Cc1cc(O)cc(O)c1C(=O)c1c2c3c(c(O)cc(C)c3oc1=O)C(=O)c1c(O)cc(O)cc1-2	–	KM mouse male, plasma	intraperitoneal, 30 mg/kg	–	lag time	2.87 min
O=C([O-])CN1CCN(CC(=O)[O-])CCN(CC(=O)NCC2CCC(C(=O)NC(Cc3ccc4ccccc4c3)C(=O)NCCCCC(NC(=O)NC(CCC(=O)O)C(=O)O)C(=O)O)CC2)CCN(CC(=O)[O-])CC1.[44Sc+3] (stereo not drawn)	PET/CT, OLINDA/EXM	human patients, liver	mean of patients	–	absorbed dose	0.11 mSv/MBq
CC(C)[C@H](NC(=O)CNC(=O)[C@H](CCC(N)=O)NC(=O)[C@H](C)N)C(=O)O	LC-MS/MS	human, plasma	intravenous, 10 mg/kg three times daily, day 2, first dose, 10 min infusion, geometric mean	–	AUC(0-last)	241 ng·h/mL
CC(C)[C@H](NC(=O)[C@@H]1CCCN1C(=O)[C@H](CCCNC(=N)N)NC(=O)[C@H](CS)NC(=O)[C@H](Cc1c[nH]c2ccccc12)NC(=O)[C@H](CCCNC(=N)N)NC(=O)[C@@H](Cc1ccccc1)NC(=O)[C@H](Cc1c[nH]cn1)NC(=O)[C@H](CCC(=O)O)NC(=O)[C@H](CS)NC(=O)[C@H](CS)NC(=O)[C@@H]1CC(=O)N[C@@H](CCCNC(=N)N)C(=O)NCC(=O)N[C@@H](CC(=O)O)C(=O)N[C@H](Cc2ccc(O)cc2)C(=O)N1)C(N)=O [technetium-99m labelled]	–	C57 mouse, female, B16/F1 melanoma	intravenous, 0.037 MBq, 2 h	reference: tumour over liver	tumour to tissue ratio	6.53
Cn1c(=O)oc2ccc(-c3ccc(CC(C#N)NC(=O)C4CNCCCO4)c(F)c3)cc21 (stereo not drawn)	–	rat	–	–	NOAEL	60 mg/kg
CCC1CC2C(C)=CC3C(=O)CCCC3C=CC(C)=CC2C(=O)O1 (stereo not drawn)	–	ICR mouse male, plasma	intravenous, 2 mg/kg, 120 min	–	plasma concentration	4.1 ± 6.5 ng/mL
CCCCCCCC(=O)OC[C@H](NC(=O)[C@H](CO)NC(=O)CN)C(=O)N[C@@H](Cc1ccccc1)C(=O)N[C@@H](CC(C)C)C(=O)N[C@@H](CO)C(=O)N1CCC[C@H]1C(=O)N[C@@H](CCC(=O)O)C(=O)N[C@@H](Cc1cnc[nH]1)C(=O)N[C@@H](CCC(N)=O)C(=O)N[C@@H](CCCNC(=N)N)C(=O)N[C@H](C(=O)N[C@@H](CCC(N)=O)C(=O)N[C@@H](CCC(N)=O)C(=O)N[C@@H](CCCNC(=N)N)C(=O)N[C@@H](CCCCN)C(=O)N[C@@H](CCC(=O)O)C(=O)N[C@@H](CO)C(=O)N[C@@H](CCCCN)C(=O)N[C@@H](CCCCN)C(=O)N1CCC[C@H]1C(=O)N1CCC[C@H]1C(=O)N[C@@H](C)C(=O)N[C@@H](CCCCN)C(=O)N[C@@H](CC(C)C)C(=O)N[C@@H](CCC(N)=O)C(=O)N1CCC[C@H]1C(=O)N[C@@H](CCCNC(=N)N)C(=O)O)C(C)C	beat-to-beat plethysmography	human chronic HFrEF patients	intravenous infusion, 0.1 µg/kg/min, 30 min after infusion end	–	blood pressure sBP	106 ± 20.5 mm Hg
Polymyxin B	ultrafiltration ELISA	0.9% NaCl solution	1 µg/mL, 100 kDa MMCO filter	reference: positive control	fraction in filtrate	98%
NCC(=O)N1CCC[C@H]1C(=O)N1C[C@H](O)C[C@H]1C(=O)O	potentiometric titration	–	37 °C, MAH-1 complex, added: Fe(III)	–	log beta	12.9
COc1cc(NC(C)=O)c2c(c1O)-c1c(OC)c(OC)cc3c1C(C2)N(C)CC3 (stereo not drawn)	–	rat kidney homogenate	5 µg/mL, 4 h, room temperature, short-term storage	–	remaining compound	100 ± 1.2%
COCCOCCOCCOCCC(=O)NCc1cc(CNC(=O)CCOCCOCCOCCOC)cc(-c2cc3cc4nc(c(-c5ccc(CCC(=O)O)cc5)c5[nH]c(cc6nc(c(OC)c2[nH]3)CC6(C)C)cc5-c2cc(CNC(=O)CCOCCOCCOCCOC)cc(CNC(=O)CCOCCOCCOCCOC)c2)CC4(C)C)c1	–	DMF	room temperature	–	Qy/B absorption intensity ratio	0.75
CC[C@H](C)[C@H](NC(=O)[C@H](N)Cc1ccc(O)cc1)C(=O)N[C@H]1CSSC[C@@H](C(=O)N(C)[C@H](C(N)=O)[C@@H](C)CC)NC(=O)[C@H](CCCNC(=N)N)NC(=O)[C@H](Cc2c[nH]cn2)NC(=O)[C@H](C)NC(=O)CN(C)C(=O)[C@H](Cc2c[nH]c3ccccc23)NC(=O)[C@H](CC(=O)O)NC(=O)[C@H](CCC(N)=O)NC(=O)[C@H](Cc2cn(C)c3ccccc23)NC(=O)[C@H](C(C)C)NC1=O	UPLC-ESI-MS	human plasma	0.18 µg/mL, 24 h, 4 °C, autosampler after SPE	–	recovery	100 ± 1.3%
Cc1ncnc2c1c(C(F)(F)F)cn2[C@@H]1O[C@H](CO)[C@@H](O)[C@H]1O	microscopy	primary peritoneal macrophages, Swiss mouse	5 days	–	CC50	8 µM
Cc1ccc(-c2ccc(-c3cc4sccc4o3)cn2)nc1	–	acetonitrile	zinc(II) complex	–	fluorescence lifetime	3.71 ns
Cc1ccc(/N=N/c2c(O)ccc3ccccc23)c(C)c1	–	rat whole blood QC samples	16.0 µg/L, 4 h, room temperature, short-term stability	–	measured concentration	16 µg/L
COC(=O)/C=C/C(=O)c1ccc(OC)cc1	–	Sprague-Dawley rat, plasma	oral, 100 mg/kg	–	Vd/F	1030 L/kg
CCC(=O)N[C@@H](C)C(=O)OCC(=O)N[C@@H](C)C(=O)O	–	water	pH 4, 25 °C	–	depolymerization half-life	69 days
C[C@H](Oc1cc(-c2cnn(C3CCN(CC[18F])CC3)c2)cnc1N)c1c(Cl)ccc(F)c1Cl	PET imaging	nude mouse, heart	iv, 5 min post injection	–	tracer uptake	5.2 ± 1 %ID/cc

For quick reference, copied from above:
Substance	test	test system	setting	how to read	quantity	value
NC12CNCCNCC(NCc3ccc(CNC(=O)CCCC(=O)NCc4ccc(-c5nncnn5)cc4)cc3)(CNCCNC1)CNCCNC2.[64Cu+2]	OLINDA dosimetry	ovaries	48 h pretargeting interval, added: huA33-TCO pretargeting	–	mean absorbed dose	0.0374 rad/mCi
Cc1cc(O)cc(O)c1C(=O)c1c2c3c(c(O)cc(C)c3oc1=O)C(=O)c1c(O)cc(O)cc1-2	–	KM mouse male, plasma	intraperitoneal, 30 mg/kg	–	lag time	2.87 min
COCCOCCOCCOCCC(=O)NCc1cc(CNC(=O)CCOCCOCCOCCOC)cc(-c2cc3cc4nc(c(-c5ccc(CCC(=O)O)cc5)c5[nH]c(cc6nc(c(OC)c2[nH]3)CC6(C)C)cc5-c2cc(CNC(=O)CCOCCOCCOCCOC)cc(CNC(=O)CCOCCOCCOCCOC)c2)CC4(C)C)c1	–	DMF	room temperature	–	Qy/B absorption intensity ratio	0.75
